Experimental data of several laboratories.
Compare with care: the assays were run in different laboratories.
Method: steady-state kinetics
B1: aromatic amino acid decarboxylase (Bacillus atrophaeus, UniProt I0DFJ0); chain MSENLQLSAEEMRQLGYQAVDLIIDHMNHLKSKPVSETIDSDILRNKLTESIPENGSDPKELLHFLNRNVFNQITHVDHPHFLAFVPGPNNYVGVVADFLASGFNVFPTAWIAGAGAEQIELTTINWLKSMLGFPDSAEGLFVSGGSMANLTALTVARQAKLNNDIENAVVYFSDQTHFSVDRALKVLGFKHHQICRIETDEHLRISVSALKKQIKEDRTKGKKPFCVIANAGTTNCGAVDSLNELADLCNDEDVWLHADGSYGAPAILSEKGSAMLQGIHRADSLTLDPHKWLFQPYDVGCVLIRNSQYLSKTFRMMPEYIKDSETNVEGEINFGECGIELSRRFRALKVWLSFKVFGVAAFRQAIDHGIMLAEQVEAFLGKAKDWEVVTPAQLGIVTFRYIPSELASTDTINEINKKLVKEITHRGFAMLSTTELKEKVVIRLCSINPRTTTEEMLQIMMKIKALAEEVSISYPCVAE
B2: GTPBP3 A322P (Homo sapiens, UniProt Q969Y2); chain TRRSSGAPAPGSGATIFALSSGQGRCGIAVIRTSGPASGHALRILTAPRDLPLARHASLRLLSDPRSGEPLDRALVLWFPGPQSFTGEDCVEFHVHGGPAVVSGVLQALGSVPGLRPAEAGEFTRRAFANGKLNLTEVEGLADLIHAETEAQRRQALRQLDGELGHLCRGWAETLTKALAHVEAYIDFGEDDNLEEGVLEQADIEVRALQVALGAHLRDARRGQRLRSGVHVVVTGPPNAGKSSLVNLLSRKPVSIVSPEPGTTRDVLETPVDLAGFPVLLSDTAGLREGVGPVEQEGVRRPRERLEQADLILAMLDASDLASPSSCNFLATVVASVGAQSPSDSSQRLLLVLNKSDLLSPEGPGPGPDLPPHLLLSCLTGEGLDGLLEALRKELAAVCGDPSTDPPLLTRARHQHHLQGCLDALGHYKQSKDLALAAEALRVARGHLTRLTGGGGTEEILDIIFQDFCVGK
B3: protein E205A (Zea mays, UniProt A0A2H4PMI3); chain APFACVSRWLHTPSFATVSPQEVSGSSPAEVQNFVQGSWTASANWNWIVDPLNGDKFIKVAEVQGTEIKSFMESLSKCPKHGLHNPLKAPERYLMYGDISAKAAHMLGQPTVLDFFAKLIQRVSPKSYQQALAEVQVSQKFLENFCGDQVRFLARSFAVPGNHLGQRSNGYRWPYGPVAIITPFNFPLAIPLLQLMGALYMGNKPVLKVDSKVSIVMEQMIRLLHDCGLPAEDMDFINSDGAVMNKLLLEANPKMTLFTGSSRVAEKLAADLKGRVKLEDAGFDWKILGPDVQEVDYVAWVCDQDAYACSGQKCSAQSVLFMHKNWSSSGLLEKMKKLSERRKLEDLTIGPVLTVTTEAMIEHMNNLLKIRGSKVLFGGEPLANHSIPKIYGAMKPTAVFVPLEEILKSGNFELVTKEIFGPFQVVTEYSEDQLELVLEACERMNAHLTAAIVSNDPLFLQDVLGRSVNGTTYAGIRARTTGAPQNHWFGPAGDPRGAGIGTPEAIKLVWSCHREIIYDVGPVPESWALPSAT
B4: NahK (Pseudomonas putida, UniProt Q1XGK3); chain MNRTLTREQVLALAEHIENAELNVHDIGKVTNDFPEMTFADAYDVQWEIRRRKEARGNKIVGLKMGLTSWAKMAQMGVETPIYGFLADYFSVPDGGVVDCSKLIHPKIEAEISVVTKAPLHGPGCHLGDVIAAIDYVIPTVEVIDSRYENFKFDLISVVADNASSTRFITGGRMASLEEVDLRTLGVVMEKNGEVVELGAGAAVLGHPLSSVAMLANLLAERGEHIPAGTFIMTGGITAAVPVAPGDNITVRYQGLGSVSARFI
B5: sacB S173G (Priestia megaterium, UniProt D5DC07); chain KGNDSKDFNNSYGISHITRDNMVKIPQQQNSDQFKVPAFDESTIKNIASAKGKNASGNTIDLDVWDSWPLQNADGTVATYHGYQIVFALAGDPKDSNDTSVYLFYKKAGDKSIDSWKNAGRVFKDSDKFVPNDPHLKNQTQEWGGSGTLTKDGKVRLFYTDYSGKQYGKQTLTTAQVNMSQPNDNTLKVDGVEDYKSIFDGDGKIYQTVQQFIDEGGYDTGDNHTLRDPHYIEDNGHKYLVFEANTGTEDGYQGEDSLYNRAYYGGNNPFFQSEKKKLLEGSNKEKASLANGALGIIELNDDYTLKKVMKPLITSNTVTDEIERANIFKKDGKWYLFTDSRGSKMTIDGIGQDDVYMLGYVSNTLTGKYKPLNDTGLVLHMDLDPNDKTFTYSHFAVPQTKGDNVVITSYMTNRGFYEDNHSTFAPSFLVNIDGSKTSVVKDRVLEQGQLTVDED
B6: enzyme (Irpex lacteus, UniProt A0A510I1H7); chain QSQVWGQCGGIGWTGATTCVAGSVCTKSNDYYSQCIPGAAAPSSAPPASTPVSVPPSQPSGSSGGLANIPASKLTQFSNFGTNPNNVQMFVYKPKNVAANPPLIVASHYCSGTAQAYFTGSKFAQLAETYGYVVIFPSSPHSGTCWDVSSDETLMHDGGSDSLSIANAARFAISNWGVDPNRVFAVGTSSGAMMTSVLAGAYPDIFKAGIVDSGVAFGCFAVPGQPEDSWNSQCSEGQLVLTGQQWAQKVKNAFPGFTGTYPKMQVWHGTADTTLYPQNFFEEVKQWTTIFNYPSTPLSNVTQTNLGSNYHNATFGPNFQAILATGVGHTVPLFEQQYLQFLGIA
UniProt P49419, sequence (whole entry, looked up): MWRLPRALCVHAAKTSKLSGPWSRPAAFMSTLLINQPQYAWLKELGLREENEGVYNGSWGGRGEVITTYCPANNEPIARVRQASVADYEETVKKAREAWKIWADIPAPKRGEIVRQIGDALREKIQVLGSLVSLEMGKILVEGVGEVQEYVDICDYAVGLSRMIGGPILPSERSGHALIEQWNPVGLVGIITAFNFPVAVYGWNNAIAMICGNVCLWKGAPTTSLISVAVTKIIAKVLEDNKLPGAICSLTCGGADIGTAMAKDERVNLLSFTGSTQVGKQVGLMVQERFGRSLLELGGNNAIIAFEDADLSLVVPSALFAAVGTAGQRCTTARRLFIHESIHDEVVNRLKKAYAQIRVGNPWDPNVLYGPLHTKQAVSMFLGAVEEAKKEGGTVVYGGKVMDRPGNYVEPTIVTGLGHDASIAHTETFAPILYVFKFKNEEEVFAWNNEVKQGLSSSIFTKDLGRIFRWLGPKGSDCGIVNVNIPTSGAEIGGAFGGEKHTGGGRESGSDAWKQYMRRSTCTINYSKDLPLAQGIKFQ
UniProt P05181, sequence (whole entry, looked up): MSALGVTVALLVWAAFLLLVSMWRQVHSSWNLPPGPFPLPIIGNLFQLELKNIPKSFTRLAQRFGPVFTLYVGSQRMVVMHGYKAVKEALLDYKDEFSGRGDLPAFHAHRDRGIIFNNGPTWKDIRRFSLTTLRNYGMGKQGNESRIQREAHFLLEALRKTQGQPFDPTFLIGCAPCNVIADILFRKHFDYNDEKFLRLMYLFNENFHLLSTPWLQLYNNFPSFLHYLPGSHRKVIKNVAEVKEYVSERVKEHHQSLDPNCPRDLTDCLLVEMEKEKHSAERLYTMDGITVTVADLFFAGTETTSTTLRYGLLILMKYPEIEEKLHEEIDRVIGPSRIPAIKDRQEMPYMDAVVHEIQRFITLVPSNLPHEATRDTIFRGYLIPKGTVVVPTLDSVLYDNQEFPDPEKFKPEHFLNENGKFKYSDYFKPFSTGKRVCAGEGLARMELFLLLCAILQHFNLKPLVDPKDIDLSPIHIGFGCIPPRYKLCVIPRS
UniProt P07914, sequence (whole entry, looked up): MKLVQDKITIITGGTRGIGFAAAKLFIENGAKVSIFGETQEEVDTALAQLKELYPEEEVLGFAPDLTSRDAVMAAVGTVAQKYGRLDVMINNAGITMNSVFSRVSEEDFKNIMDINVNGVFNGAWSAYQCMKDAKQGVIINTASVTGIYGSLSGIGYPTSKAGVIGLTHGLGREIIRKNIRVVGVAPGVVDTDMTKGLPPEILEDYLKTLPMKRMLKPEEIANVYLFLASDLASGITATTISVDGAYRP

With `B1` the Km was 700 µM (N[C@@H](Cc1c[nH]c2c(Cl)cccc12)C(=O)O; pH 7, 37 °C, not purified, added: PLP 40 µM).
`B2 (GTPBP3 A322P)` has a Km of 91.3 µM (Nc1nc2c(ncn2[C@@H]2O[C@H](COP(=O)(O)OP(=O)(O)OP(=O)(O)O)[C@@H](O)[C@H]2O)c(=O)[nH]1; pH 8, 37 °C, KCl 300 mM).
`B3 (protein E205A)` gave a Km of 32 µM (O=CCCCC(=O)O; pH 7.5, 30 °C, substrate inhibition, added: NAD+ 3.0 mM).
The Km of `B4 (NahK)` is reported as 19.9 µM (O=C(O)C/C=C/C(=O)C(=O)O; pH 7.4, 25 °C, sodium phosphate 20 mM, added: MgCl2 5 mM).
With `B5 (sacB S173G)` the Km was 27700 µM (OC[C@H]1O[C@@](CO)(O[C@H]2O[C@H](CO)[C@@H](O)[C@H](O)[C@H]2O)[C@@H](O)[C@@H]1O; pH 6.6).
With `STH1425 (Symbiobacterium thermophilum, UniProt Q67PI3)` the Km was 15200 µM (O=C(O)C(=O)Cc1ccccc1; pH 9, 30 °C, reductive amination, added: NH4Cl 200 mM, NADPH 0.5 mM).
With `CYP2E1 (Homo sapiens, UniProt P05181)` the Km was 39 µM (C=Cc1ccc(Br)cc1; pH 7.4, 37 °C).
`enzyme (Plasmodium falciparum, UniProt Q8ILK1)` has a Km of 1.44 µM (C[S+](CC[C@H](N)C(=O)[O-])C[C@H]1O[C@@H](n2cnc3c(N)ncnc32)[C@H](O)[C@@H]1O; 37 °C).
`B6 (enzyme)` has a Km of 1400 µM (CC(=O)Oc1ccc([N+](=O)[O-])cc1; pH 6, 30 °C).
The Km of `enzyme (Plasmodium falciparum, UniProt Q8I302)` is reported as 239 µM (CC1=CC(=O)c2ccccc2C1=O; pH 8, 100 °C, not purified).
`alanine aminopeptidase (Neisseria meningitidis, UniProt Q9JYV4)` gave a Km of 149 µM (NC(=O)Cc1cc(=O)oc2cc(NC(=O)[C@@H](N)Cc3ccc(Cl)cc3)ccc12; pH 7.5, 37 °C).
`BaiA1 (Clostridium scindens, UniProt P07914)` gave a Km of 883 µM (NC(=O)c1ccc[n+]([C@@H]2O[C@H](COP(=O)(O)OP(=O)(O)OC[C@H]3O[C@@H](n4cnc5c(N)ncnc54)[C@H](OP(=O)(O)O)[C@@H]3O)[C@@H](O)[C@H]2O)c1; pH 8.7, 37 °C, cofactor varied, added: glycocholic acid 1.4 mM).
`ALDH7A1 (Homo sapiens, UniProt P49419)` has a Km of 517 µM (N[C@@H](CCCC=O)C(=O)O; pH 8, added: NAD+ 2.5 mM, pyrophosphate 50 mM).

Some of these lines once more:
`BaiA1 (Clostridium scindens, UniProt P07914)` gave a Km of 883 µM (NC(=O)c1ccc[n+]([C@@H]2O[C@H](COP(=O)(O)OP(=O)(O)OC[C@H]3O[C@@H](n4cnc5c(N)ncnc54)[C@H](OP(=O)(O)O)[C@@H]3O)[C@@H](O)[C@H]2O)c1; pH 8.7, 37 °C, cofactor varied, added: glycocholic acid 1.4 mM).
